Measured values gathered from unrelated publications.
Chain of UniProt Q9BVS4 (whole entry, looked up): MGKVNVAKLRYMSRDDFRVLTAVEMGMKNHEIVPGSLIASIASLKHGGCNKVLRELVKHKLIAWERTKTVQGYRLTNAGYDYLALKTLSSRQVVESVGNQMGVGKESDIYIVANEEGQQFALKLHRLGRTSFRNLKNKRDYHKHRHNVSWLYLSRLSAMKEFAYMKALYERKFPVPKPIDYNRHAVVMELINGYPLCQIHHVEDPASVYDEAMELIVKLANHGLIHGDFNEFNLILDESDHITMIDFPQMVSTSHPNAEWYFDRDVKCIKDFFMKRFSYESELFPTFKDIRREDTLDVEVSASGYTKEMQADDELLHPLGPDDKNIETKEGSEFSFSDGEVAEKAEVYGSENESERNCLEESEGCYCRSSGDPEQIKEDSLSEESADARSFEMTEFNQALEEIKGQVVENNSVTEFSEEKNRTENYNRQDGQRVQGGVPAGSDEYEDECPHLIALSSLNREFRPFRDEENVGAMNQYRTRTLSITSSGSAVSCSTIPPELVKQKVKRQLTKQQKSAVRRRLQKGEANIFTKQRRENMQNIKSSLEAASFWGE
Chain of UniProt Q9UIK4 (whole entry, looked up): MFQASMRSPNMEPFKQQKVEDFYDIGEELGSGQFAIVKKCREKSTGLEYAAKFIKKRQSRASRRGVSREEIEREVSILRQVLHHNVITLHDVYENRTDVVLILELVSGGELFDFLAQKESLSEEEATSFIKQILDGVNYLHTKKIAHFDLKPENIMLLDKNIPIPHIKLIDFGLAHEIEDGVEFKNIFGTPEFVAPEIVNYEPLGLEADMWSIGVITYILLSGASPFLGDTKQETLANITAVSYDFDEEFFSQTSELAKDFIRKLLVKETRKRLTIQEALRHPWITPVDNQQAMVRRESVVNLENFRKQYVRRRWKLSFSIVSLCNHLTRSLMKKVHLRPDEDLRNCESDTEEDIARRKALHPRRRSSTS
Chain of UniProt Q9HC98 (whole entry, looked up): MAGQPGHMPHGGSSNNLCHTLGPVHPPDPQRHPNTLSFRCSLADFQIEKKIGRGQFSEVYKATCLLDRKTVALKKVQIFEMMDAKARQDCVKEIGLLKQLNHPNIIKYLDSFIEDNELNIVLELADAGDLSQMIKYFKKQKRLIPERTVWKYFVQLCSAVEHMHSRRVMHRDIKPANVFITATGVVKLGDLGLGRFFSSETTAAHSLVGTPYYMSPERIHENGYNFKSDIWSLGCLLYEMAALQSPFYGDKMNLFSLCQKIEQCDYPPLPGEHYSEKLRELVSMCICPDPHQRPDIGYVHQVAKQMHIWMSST
Chain of UniProt Q9P2K8 (whole entry, unmodified, looked up): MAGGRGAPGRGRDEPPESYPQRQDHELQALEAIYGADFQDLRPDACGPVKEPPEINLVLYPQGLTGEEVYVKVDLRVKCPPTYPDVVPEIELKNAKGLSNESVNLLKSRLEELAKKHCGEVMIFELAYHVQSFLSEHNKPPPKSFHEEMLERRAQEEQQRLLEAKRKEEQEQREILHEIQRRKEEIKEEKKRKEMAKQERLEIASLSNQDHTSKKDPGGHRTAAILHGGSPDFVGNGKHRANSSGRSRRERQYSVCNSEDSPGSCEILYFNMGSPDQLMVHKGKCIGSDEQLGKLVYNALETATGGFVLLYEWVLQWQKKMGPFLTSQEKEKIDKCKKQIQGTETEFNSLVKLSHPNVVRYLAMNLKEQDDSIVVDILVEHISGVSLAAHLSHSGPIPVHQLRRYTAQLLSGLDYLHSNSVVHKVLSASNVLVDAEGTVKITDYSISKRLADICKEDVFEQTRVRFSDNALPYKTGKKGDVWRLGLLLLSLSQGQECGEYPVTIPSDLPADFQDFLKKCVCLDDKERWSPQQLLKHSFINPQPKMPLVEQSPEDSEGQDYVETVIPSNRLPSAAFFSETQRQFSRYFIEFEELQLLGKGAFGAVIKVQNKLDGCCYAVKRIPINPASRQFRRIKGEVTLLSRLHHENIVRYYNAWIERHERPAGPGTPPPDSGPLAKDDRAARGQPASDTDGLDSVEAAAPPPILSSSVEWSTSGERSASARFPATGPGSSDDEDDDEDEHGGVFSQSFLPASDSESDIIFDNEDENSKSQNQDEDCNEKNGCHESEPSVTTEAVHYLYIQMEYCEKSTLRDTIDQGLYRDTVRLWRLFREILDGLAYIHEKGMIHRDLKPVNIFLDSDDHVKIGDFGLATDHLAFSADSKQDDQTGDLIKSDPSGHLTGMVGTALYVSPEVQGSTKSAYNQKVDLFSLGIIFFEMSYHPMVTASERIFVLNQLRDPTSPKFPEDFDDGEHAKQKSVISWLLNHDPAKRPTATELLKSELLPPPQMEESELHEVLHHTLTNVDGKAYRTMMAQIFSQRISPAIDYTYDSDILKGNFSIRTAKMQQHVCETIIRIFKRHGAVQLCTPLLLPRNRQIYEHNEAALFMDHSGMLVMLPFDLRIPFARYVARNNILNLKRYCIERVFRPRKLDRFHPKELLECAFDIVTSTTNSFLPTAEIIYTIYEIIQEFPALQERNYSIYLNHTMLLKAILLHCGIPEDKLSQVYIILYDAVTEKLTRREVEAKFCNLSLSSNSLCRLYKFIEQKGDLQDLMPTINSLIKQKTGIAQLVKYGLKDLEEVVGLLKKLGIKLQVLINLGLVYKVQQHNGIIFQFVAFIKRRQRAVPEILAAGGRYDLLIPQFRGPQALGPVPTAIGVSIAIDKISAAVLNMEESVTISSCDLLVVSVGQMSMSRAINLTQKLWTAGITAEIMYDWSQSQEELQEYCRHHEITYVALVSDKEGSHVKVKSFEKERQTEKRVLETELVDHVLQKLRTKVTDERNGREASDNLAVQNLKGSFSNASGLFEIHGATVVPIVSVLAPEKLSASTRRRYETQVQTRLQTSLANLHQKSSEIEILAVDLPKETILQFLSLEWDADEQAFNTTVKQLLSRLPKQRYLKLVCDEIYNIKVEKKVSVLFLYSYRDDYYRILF
Chain of UniProt Q9UEE5 (whole entry, looked up): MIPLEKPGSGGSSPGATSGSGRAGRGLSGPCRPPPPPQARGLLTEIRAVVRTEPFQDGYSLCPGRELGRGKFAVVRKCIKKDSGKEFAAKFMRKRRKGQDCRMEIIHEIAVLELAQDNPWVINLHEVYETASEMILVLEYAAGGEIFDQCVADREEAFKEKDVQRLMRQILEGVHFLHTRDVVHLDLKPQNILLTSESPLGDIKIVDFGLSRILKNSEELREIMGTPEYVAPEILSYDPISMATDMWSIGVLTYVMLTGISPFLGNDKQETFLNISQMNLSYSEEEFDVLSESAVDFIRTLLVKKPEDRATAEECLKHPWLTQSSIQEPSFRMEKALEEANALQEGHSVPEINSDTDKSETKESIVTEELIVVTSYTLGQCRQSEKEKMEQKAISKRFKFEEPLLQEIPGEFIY

Cc1csc2[nH]c(=O)n(O)c(=O)c12  viability (HFF; cell growth or viability, MTS; 10 µM, 7 days): 89%
COc1ccc(NC(=O)NCc2cn(Cc3ccc(C)cc3)nn2)cc1  viability (L02; cell growth or viability, CCK-8; 50 µM, 72 h): 127%
COc1cccc(NC(=O)Nc2ccc(Oc3nc4ccccc4n4cnnc34)cc2)c1  viability (WISH; cell growth or viability, MTT; 100 µM, 24 h): 47.3%
C=CC(=O)N1CCC(COCC(=O)N2CCN(c3nc(-c4cnc(N)nc4C(F)F)nc(N4CCOC[C@@H]4C)n3)CC2)CC1  remaining binding (eIF-2-alpha kinase GCN2, C-terminal kinase domain (EIF2AK4, Homo sapiens, UniProt Q9P2K8, S808G); binding, competition with immobilised ligand; 1 µM): 100%
O=c1[nH]cc(F)c(=O)[nH]1  viability (L02; cell growth or viability, CCK-8; 50 µM): 103%
COc1cccc2c1C(=O)c1c(O)c3c(c(O)c1C2=O)C[C@@](O)(C(=O)CO)C[C@@H]3O[C@H]1C[C@H](N)[C@H](O)[C@H](C)O1  viability (SW480; cell growth or viability, MTT; 25 µg/mL): 54.4%
Cc1ccc(S(=O)(=O)NNc2ccc([N+](=O)[O-])cc2[N+](=O)[O-])cc1  viability (HEK293; cell growth or viability, MTT; 15.625 µg/mL): 88%
COc1cc(-c2cncc3c2CN(C)Cc2cc(N4CCNCC4)ccc2-3)cc(OC)c1OC  remaining activity (STK17A (Homo sapiens, UniProt Q9UEE5); enzyme activity, inhibitor; 1 µM): 107%
Nc1ccn([C@@H]2O[C@H](CO)[C@@H](O)C2(F)F)c(=O)n1  viability (MDA-MB-231; cell growth or viability, MTT; 5 µg/mL, 48 h): 46.8%
CCN1CCc2c(sc3[nH]c(=O)n(O)c(=O)c23)C1  viability (HFF; cell growth or viability, MTS; 10 µM, 7 days): 106%
Cc1cc([C@@H](C)Nc2ccccc2C(=O)O)c2nc(N3CCC(F)(F)CC3)c(C#N)c(=O)n2c1  remaining binding (RIOK2 (Homo sapiens, UniProt Q9BVS4); binding, competition with immobilised ligand; 1 µM): 78%
CNC(=O)c1cc(Oc2ccc(NC(=O)Nc3ccc(Cl)c(C(F)(F)F)c3)cc2)ccn1  viability (WISH; cell growth or viability, MTT; 1.56 µM, 24 h): 100%
O=c1[nH]c2cc(-c3ccccc3)ccc2c(=O)n1O  viability (HFF; cell growth or viability, MTS; 10 µM, 7 days): 94%
COc1cccc(-c2n[nH]c(SCc3ccccn3)n2)c1OC  concentration (female Sprague-Dawley rat, plasma; oral, 100 mg/kg, 2 h, single dose): 34.4 µg/mL
Cc1ccc(S(=O)(=O)[N](Nc2ccc([N+](=O)[O-])cc2[N+](=O)[O-])[Sn]([Cl])[Cl])cc1  viability (HEK293; cell growth or viability, MTT; 3.91 µg/mL): 93.3%
COc1cc(/C=C/C(=O)C(=Cc2ccc(O)cc2)C(=O)/C=C/c2ccc(O)c(OC)c2)ccc1O  viability (WRL68; cell growth or viability, MTT; 49.5 µg/mL, 48 h): 80.3%
CCCCC(=O)Nc1ccc(-c2ccc3ncn(CCC)c(=O)c3c2)cn1  remaining binding (NEK6 (Homo sapiens, UniProt Q9HC98); binding, competition with immobilised ligand; 0.5 µM): 69%
COc1cnc2c(cc(C(=O)NCc3ccc(Cl)cc3)c(=O)n2CC(=O)N2CC(C)(F)C2)n1  viability (MRC5; cell growth or viability, CCK-8; 40 µM): 76%
COC(=O)COc1c(Cc2cc(C(C)(C)CC(C)(C)C)cc(-n3nc4ccccc4n3)c2OCC(=O)OC)cc(C(C)(C)CC(C)(C)C)cc1-n1nc2ccccc2n1  viability (HeLa; cell growth or viability, MTT; 10 µM, 24 h): 44.9%
O=c1nc(N2CCN(CC3CCCCC3)CC2)sc2c([N+](=O)[O-])cc(C(F)(F)F)cc12  concentration (CD-1 mouse, lung; oral, 100 mg/kg, 8 h): 0.396 µg/mL
CN(C)C(=O)CN1CCN(c2cnc3c(cc(C(=O)NCc4ccc(Cl)cc4)c(=O)n3CC(=O)N3CC(C)(F)C3)n2)C1=O  viability (MRC5; cell growth or viability, CCK-8; 40 µM): 112%
CNc1ncc2c(/C=C/C(=O)N3CCC(OC)CC3)nn(Cc3cccc(C(F)(F)F)c3)c2n1  remaining activity (DAPK2 (Homo sapiens, UniProt Q9UIK4); enzyme activity, inhibitor, radiometric; 1 µM): 96%

For quick reference, copied from above:
Cc1cc([C@@H](C)Nc2ccccc2C(=O)O)c2nc(N3CCC(F)(F)CC3)c(C#N)c(=O)n2c1  remaining binding (RIOK2 (Homo sapiens, UniProt Q9BVS4); binding, competition with immobilised ligand; 1 µM): 78%
Nc1ccn([C@@H]2O[C@H](CO)[C@@H](O)C2(F)F)c(=O)n1  viability (MDA-MB-231; cell growth or viability, MTT; 5 µg/mL, 48 h): 46.8%
COC(=O)COc1c(Cc2cc(C(C)(C)CC(C)(C)C)cc(-n3nc4ccccc4n3)c2OCC(=O)OC)cc(C(C)(C)CC(C)(C)C)cc1-n1nc2ccccc2n1  viability (HeLa; cell growth or viability, MTT; 10 µM, 24 h): 44.9%
O=c1[nH]c2cc(-c3ccccc3)ccc2c(=O)n1O  viability (HFF; cell growth or viability, MTS; 10 µM, 7 days): 94%
